Measurements gathered from unrelated publications.
Lines come from different studies, so protocols differ. ± gives the spread as reported.
Cell line: A549

`Cc1ccc2ccc3ccc(C)nc3c2n1.Cc1ccc2ccc3ccc(C)nc3c2n1.Clc1ccc(-c2cc(-c3ccccn3)nn2-c2ccccc2)cc1.[Cl-].[Cl-].[Ru+2]` gave an IC50 of 5.5 µM (resazurin; 72 h, with: indigo light 450 nm, 29.1 J/cm2).
`CC(=O)OC[C@H]1O[C@@H](N2C(=O)/C(=C/c3ccc4c(c3)OCCO4)SC2=S)[C@H](OC(C)=O)[C@@H](OC(C)=O)[C@@H]1OC(C)=O` has an IC50 of 17.1 µM (cell growth or viability, MTT; 48 h).
The IC50 of `CC(=O)[O-].O.[Cu+2].[O-]c1ccc(Br)cc1C=NCCN1CCOCC1` is reported as 21.4 µg/mL (cell viability, MTT; 72 h).
For `CCn1[c]([Au-]([Cl])([Cl])[Cl])[n+](CC)c2ccc(C(=O)OC)cc21`, the IC50 was 19.3 µM (cell growth or viability, crystal violet; 72 h).
`N#Cc1c(F)c(Cl)c2nc(SCc3ccccc3)nc(N)c2c1F` has an IC50 of 65 µM (cell growth or viability, MTT; 96 h).
With `N=C(N)Nc1nc2ccccc2o1` the IC50 was 167 µM (cell growth or viability, MTT; 24 h).
For `[Cl-].[Cl-].[Ru+2].c1ccc2nc(-c3ccc4ccccc4n3)ccc2c1.c1cnc2c(c1)ccc1cccnc12.c1cnc2c(c1)ccc1cccnc12`, the IC50 was 43.4 µM (cell growth or viability; 72 h, dark).
`COc1cc([C@@H]2c3cc4c(cc3[C@H](OC(=O)CCCc3ccc(NS(=O)(=O)c5ccccc5Br)cc3)[C@H]3COC(=O)[C@H]23)OCO4)cc(OC)c1OC` has an IC50 of 14.1 µM (cell growth or viability, CCK-8; 24 h).
With `C=C1C(=O)[C@@]23CC[C@@H]4[C@](C)(COC(C)=O)CCC[C@@]4(C)[C@@H]2[C@@H](O)C[C@@H]1C3` (single isomer, unassigned) the IC50 was 19 µM (cell growth or viability, MTT).
For `CC1=CC(C)=[N+]2C1=C(CO)c1c(C)cc(C)n1[B-]2(C)C`, the IC50 was over 100 µM (cytotoxicity, resazurin; 4 h incubation, dark).
The IC50 of `Cc1c2ccccc2n2c1c(-c1ccccc1)c(S(=O)(=O)c1ccccc1)c1ccccc12` is reported as 41.1 µM (cell growth or viability, MTT; 72 h).
`CC(C)c1cccc(C(C)C)c1[N+]#[C][Pt-]([Cl])([Cl])=[C](Nc1cccc(CN[C](Nc2c(C(C)C)cccc2C(C)C)=[Au][Cl])c1)Nc1c(C(C)C)cccc1C(C)C` gave an IC50 of over 100 µM (cell growth or viability).
`Cc1ccc(C(C)C)cc1.Cc1ncc(CO)c(C=NNC2=Nc3ccccc3-c3[nH]c4ccc(Br)cc4c3C2)c1O.[Cl-].[Cl][Os+]` gave an IC50 of 10 µM (cell growth or viability, MTT; 96 h).
With `c1ccc(-c2nn(-c3nc4ccccc4s3)[n+](-c3ccccc3)n2)cc1` the IC50 was 41 ± 3 µM (cell growth, resazurin).
The IC50 of `[Cl-].[Cl-].[Ru+2].c1ccc(-c2ccccn2)nc1.c1ccc(-c2ccccn2)nc1.c1ccc(-c2ccnc3c2ccc2c(-c4ccccc4)ccnc23)cc1` is reported as 0.5 µM (maximal respiration, oxygen consumption, Seahorse extracellular flux; with: indigo light 450 nm).
With `CC(=O)O[C@@H]1CC[C@@]2(C)[C@@H](CC[C@]3(C)[C@@H]2C(=O)C=C2[C@@H]4[C@@H](C)[C@H](C)CC[C@]4(C)CC[C@]23C)[C@@]1(C)C(=O)NCCNC(=O)CCCCCCCBr` the IC50 was 16.9 µM (cell growth or viability, MTT; 48 h).
The IC50 of `COc1ccccc1/C=C1\SC(=O)N(CC(=O)Nc2ccc(C(=O)Nc3ccc([N+](=O)[O-])cc3)cc2)C1=O` is reported as 10.9 µM (cell growth or viability, MTT).

For quick reference, copied from above:
With `C=C1C(=O)[C@@]23CC[C@@H]4[C@](C)(COC(C)=O)CCC[C@@]4(C)[C@@H]2[C@@H](O)C[C@@H]1C3` (single isomer, unassigned) the IC50 was 19 µM (cell growth or viability, MTT).
